Measurements gathered from unrelated publications.
Lines come from different studies, so protocols differ. ± marks the error that the study gave.
FYN: Tyrosine-protein kinase Fyn (FYN, Homo sapiens, UniProt P06241)
Chain of UniProt P06241 (whole entry, looked up): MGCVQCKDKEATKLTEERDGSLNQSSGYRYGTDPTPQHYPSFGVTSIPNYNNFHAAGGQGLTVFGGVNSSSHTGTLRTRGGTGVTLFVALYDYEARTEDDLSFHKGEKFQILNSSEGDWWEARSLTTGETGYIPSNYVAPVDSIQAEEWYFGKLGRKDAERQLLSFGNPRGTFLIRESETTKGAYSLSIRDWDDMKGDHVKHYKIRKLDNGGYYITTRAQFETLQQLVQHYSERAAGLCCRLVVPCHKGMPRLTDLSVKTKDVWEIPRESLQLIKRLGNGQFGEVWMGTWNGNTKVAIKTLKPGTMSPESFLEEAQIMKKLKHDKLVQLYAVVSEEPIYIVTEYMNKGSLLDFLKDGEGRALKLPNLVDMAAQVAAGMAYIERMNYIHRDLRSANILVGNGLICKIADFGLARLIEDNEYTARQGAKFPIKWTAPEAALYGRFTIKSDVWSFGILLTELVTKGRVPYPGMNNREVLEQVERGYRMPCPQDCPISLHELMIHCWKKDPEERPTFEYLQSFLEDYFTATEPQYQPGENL
FYN isoform b: Tyrosine-protein kinase Fyn, isoform b (FYN, Homo sapiens, UniProt P06241)

SMILES	target	test	conditions	scale	quantity	value
CC#CC(=O)N1CCC[C@H]1c1nc(-c2ccc(C(=O)Nc3ccccn3)cc2)c2c(N)nccn12	FYN	kinase activity, inhibitor, HotSpot radiometric	100 nM, together with: ATP 10 µM	–	remaining activity	100 ± 2%
[2H]c1cc(C)c(NC(=O)c2cnc(Nc3cc(N4CCC(O)CC4)nc(C)n3)s2)c(Cl)c1	FYN isoform b	–	0.001 µM	–	inhibition	> 50%
C=CC(=O)N1CCC(COCC(=O)N2CCN(c3nc(-c4cnc(N)nc4C(F)F)nc(N4CCOC[C@@H]4C)n3)CC2)CC1	FYN	KINOMEscan	1 µM	–	remaining binding	94%
Cc1cc(Nc2cc(N3CCN(C)CC3)nc(Sc3ccc(NC(=O)C4CC4)cc3)n2)[nH]n1	FYN	kinase activity, KinaseProfiler	0.03 µM, species human	relative to: control	remaining activity	99%
COc1ccc(F)cc1C(=O)NCc1ccc(-c2nn([C@@H](C)C(F)(F)F)c(N)c2C(N)=O)cc1	FYN	kinase activity, inhibitor, HotSpot radiometric	100 nM, together with: ATP 10 µM	–	remaining activity	66.9 ± 1.2%
CC(=O)N[C@H](C(=O)N[C@@H](CC(N)=O)C(=O)N[C@@H](CCCCN)C(=O)N1CCC[C@H]1C(=O)N[C@@H](CC(C)C)C(=O)N1CCC[C@H]1C(=O)N1CCC[C@H]1C(=O)N[C@@H](CC(C)C)C(=O)N1CCC[C@H]1C(=O)N[C@H](C(=O)N[C@@H](C)C(N)=O)C(C)C)C(C)C	Tyrosine-protein kinase Fyn, SH3 domain (FYN, Homo sapiens, UniProt P06241)	ligand binding, FTIR spectroscopy, item: asymmetric stretch band C	pH 7.0, FYN complex, together with: 4 mM peptide	–	peak area	12 ± 4%
Cc1nc(Nc2ncc(C(=O)Nc3c(C)cccc3Cl)s2)cc(N2CC[C@H](O)C2)n1	FYN	–	0.001 µM	–	inhibition	89%
CC/C(=N\NC(=O)NCc1cccc(O)c1)c1ccc(O)c(C)c1O	FYN isoform b	kinase activity, inhibitor	0.1 µM	–	inhibition	1.1%
[2H]c1cc(C)c(NC(=O)c2cnc(Nc3cc(N4CCCCC4)nc(C)n3)s2)c(Cl)c1	FYN isoform b	–	0.01 µM	–	inhibition	> 90%
C=CC(=O)N1CCC[C@@H](n2nc(-c3ccc(Oc4ccccc4)cc3)c3c(N)ncnc32)C1	FYN	kinase activity, inhibitor, HotSpot radiometric	100 nM, together with: ATP 10 µM	–	remaining activity	17 ± 0.9%

Repeated from above:
SMILES	target	test	conditions	scale	quantity	value
[2H]c1cc(C)c(NC(=O)c2cnc(Nc3cc(N4CCCCC4)nc(C)n3)s2)c(Cl)c1	FYN isoform b	–	0.01 µM	–	inhibition	> 90%
